Published values pooled from the literature.
A part holds a random share of what one study measured.
UniProt Q86YV6, sequence (whole entry, looked up): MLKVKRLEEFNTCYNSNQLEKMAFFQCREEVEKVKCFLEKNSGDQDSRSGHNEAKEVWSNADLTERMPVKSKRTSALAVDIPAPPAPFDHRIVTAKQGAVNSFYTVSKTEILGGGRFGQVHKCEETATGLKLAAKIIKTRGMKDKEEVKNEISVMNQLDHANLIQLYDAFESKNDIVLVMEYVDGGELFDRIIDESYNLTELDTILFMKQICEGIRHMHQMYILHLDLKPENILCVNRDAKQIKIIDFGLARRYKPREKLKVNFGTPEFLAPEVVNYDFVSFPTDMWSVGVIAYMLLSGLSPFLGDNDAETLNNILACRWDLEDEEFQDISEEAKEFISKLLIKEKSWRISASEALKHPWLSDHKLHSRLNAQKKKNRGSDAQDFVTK
UniProt Q9Y4K4, sequence (whole entry, looked up): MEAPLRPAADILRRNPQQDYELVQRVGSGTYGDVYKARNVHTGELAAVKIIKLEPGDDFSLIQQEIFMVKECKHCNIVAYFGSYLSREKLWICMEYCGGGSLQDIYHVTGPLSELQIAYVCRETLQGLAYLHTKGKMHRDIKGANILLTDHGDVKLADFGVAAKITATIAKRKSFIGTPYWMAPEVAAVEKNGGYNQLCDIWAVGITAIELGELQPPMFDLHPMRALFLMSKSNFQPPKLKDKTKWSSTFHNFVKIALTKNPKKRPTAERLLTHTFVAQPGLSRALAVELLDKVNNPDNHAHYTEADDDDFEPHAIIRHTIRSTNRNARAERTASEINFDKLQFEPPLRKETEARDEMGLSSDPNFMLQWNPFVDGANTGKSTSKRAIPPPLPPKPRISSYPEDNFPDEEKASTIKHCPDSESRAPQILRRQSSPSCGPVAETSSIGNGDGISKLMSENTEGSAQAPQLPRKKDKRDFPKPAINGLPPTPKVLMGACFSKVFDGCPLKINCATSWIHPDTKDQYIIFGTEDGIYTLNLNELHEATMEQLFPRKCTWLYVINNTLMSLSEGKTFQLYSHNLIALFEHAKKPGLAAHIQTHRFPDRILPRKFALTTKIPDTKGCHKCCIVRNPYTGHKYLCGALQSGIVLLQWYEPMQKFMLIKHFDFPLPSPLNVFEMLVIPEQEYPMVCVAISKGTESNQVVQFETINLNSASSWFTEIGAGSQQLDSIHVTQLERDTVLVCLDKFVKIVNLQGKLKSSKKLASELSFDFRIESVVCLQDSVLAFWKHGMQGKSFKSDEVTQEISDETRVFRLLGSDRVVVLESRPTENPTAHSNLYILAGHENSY
UniProt Q8NE63, sequence (whole entry, looked up): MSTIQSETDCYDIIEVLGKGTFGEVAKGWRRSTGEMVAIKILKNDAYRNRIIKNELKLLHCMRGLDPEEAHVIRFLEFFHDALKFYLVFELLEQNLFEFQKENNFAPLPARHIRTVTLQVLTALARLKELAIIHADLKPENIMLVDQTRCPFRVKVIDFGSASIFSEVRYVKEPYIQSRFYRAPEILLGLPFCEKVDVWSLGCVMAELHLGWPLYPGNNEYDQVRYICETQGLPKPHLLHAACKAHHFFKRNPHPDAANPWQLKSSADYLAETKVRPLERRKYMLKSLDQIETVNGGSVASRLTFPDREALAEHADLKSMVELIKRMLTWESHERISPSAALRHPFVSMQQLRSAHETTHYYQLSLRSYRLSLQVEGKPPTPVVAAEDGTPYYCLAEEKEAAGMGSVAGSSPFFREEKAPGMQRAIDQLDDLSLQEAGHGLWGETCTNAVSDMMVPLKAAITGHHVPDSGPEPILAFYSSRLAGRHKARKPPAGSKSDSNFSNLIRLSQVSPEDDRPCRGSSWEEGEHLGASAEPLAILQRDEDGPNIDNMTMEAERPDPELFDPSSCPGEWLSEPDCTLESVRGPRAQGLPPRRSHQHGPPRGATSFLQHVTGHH
UniProt P41240, sequence (whole entry, looked up): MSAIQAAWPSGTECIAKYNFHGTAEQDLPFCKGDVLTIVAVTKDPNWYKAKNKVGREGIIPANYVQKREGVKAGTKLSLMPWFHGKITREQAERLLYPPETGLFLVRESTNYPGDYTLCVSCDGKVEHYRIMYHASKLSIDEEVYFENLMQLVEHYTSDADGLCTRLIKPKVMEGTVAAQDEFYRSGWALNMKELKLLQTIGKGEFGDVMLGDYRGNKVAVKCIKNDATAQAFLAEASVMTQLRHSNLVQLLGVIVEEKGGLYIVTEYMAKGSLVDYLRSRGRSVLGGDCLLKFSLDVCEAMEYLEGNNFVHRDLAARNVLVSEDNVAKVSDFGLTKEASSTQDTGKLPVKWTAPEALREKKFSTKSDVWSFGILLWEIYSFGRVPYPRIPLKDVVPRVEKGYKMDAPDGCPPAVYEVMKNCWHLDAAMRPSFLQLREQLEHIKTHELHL
UniProt P51451, sequence (whole entry, looked up): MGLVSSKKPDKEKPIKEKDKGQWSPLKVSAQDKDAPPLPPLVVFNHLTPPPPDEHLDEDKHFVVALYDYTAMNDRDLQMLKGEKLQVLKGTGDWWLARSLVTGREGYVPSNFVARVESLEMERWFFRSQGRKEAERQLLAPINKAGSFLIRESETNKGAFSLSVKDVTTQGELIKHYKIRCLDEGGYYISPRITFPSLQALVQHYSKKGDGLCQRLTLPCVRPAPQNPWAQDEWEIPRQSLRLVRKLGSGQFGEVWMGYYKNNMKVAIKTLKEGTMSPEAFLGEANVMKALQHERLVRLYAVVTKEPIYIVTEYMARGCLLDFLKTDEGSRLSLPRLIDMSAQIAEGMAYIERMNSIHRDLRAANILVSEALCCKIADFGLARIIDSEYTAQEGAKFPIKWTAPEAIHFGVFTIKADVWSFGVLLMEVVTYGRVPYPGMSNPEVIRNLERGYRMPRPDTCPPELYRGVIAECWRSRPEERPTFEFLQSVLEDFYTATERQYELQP
UniProt Q02750, sequence (whole entry, looked up): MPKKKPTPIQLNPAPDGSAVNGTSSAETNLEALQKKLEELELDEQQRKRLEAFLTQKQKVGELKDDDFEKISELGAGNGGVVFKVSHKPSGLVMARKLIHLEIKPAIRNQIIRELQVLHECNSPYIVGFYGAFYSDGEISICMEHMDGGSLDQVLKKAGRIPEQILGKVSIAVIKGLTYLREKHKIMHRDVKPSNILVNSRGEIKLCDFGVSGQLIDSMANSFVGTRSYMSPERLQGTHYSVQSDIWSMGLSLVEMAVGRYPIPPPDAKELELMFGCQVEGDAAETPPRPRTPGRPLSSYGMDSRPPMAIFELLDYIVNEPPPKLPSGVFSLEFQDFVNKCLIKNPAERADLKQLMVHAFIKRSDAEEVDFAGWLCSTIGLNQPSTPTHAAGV

Set 1
Compound: CCC1(c2cccc(-c3cn(C)nc3C)c2)C2=C(Nc3n[nH]cc31)C(F)C(C)(C)CC2=O (single isomer, unassigned)
Concentration: 1 µM
Measurement: remaining binding
HIPK4 (Homo sapiens, UniProt Q8NE63); binding, competition with immobilised ligand: 100%
DAPK2 (Homo sapiens, UniProt Q9UIK4); kinase binding, KINOMEscan; baseline: DMSO control: 100%
MAP3K10 (Homo sapiens, UniProt Q02779); binding, competition with immobilised ligand: 100%
MAP3K12 (Homo sapiens, UniProt Q12852); kinase binding, KINOMEscan; baseline: DMSO control: 100%
NEK3 (Homo sapiens, UniProt P51956); binding, competition with immobilised ligand: 93%
SIK1 (Homo sapiens, UniProt P57059); KINOMEscan: 92%
BLK (Homo sapiens, UniProt P51451); kinase binding, KINOMEscan; baseline: DMSO control: 90%
CDK19 (Homo sapiens, UniProt Q9BWU1); KINOMEscan: 100%
MYLK4 (Homo sapiens, UniProt Q86YV6); kinase binding, KINOMEscan; baseline: DMSO control: 100%
PIM3 (Homo sapiens, UniProt Q86V86); binding, competition with immobilised ligand: 100%
MAP2K1 (Homo sapiens, UniProt Q02750); binding, competition with immobilised ligand: 69%
EPHB6 (Homo sapiens, UniProt O15197); kinase binding, KINOMEscan; baseline: DMSO control: 100%
GRK3 (Homo sapiens, UniProt P35626); binding, competition with immobilised ligand: 51%
TEK (Homo sapiens, UniProt Q02763); binding, competition with immobilised ligand: 100%
NEK9 (Homo sapiens, UniProt Q8TD19); kinase binding, KINOMEscan; baseline: DMSO control: 100%
STK17B (Homo sapiens, UniProt O94768); binding, competition with immobilised ligand: 100%
PRKG1 (Homo sapiens, UniProt Q13976); kinase binding, KINOMEscan; baseline: DMSO control: 100%
Myosin-IIIa (MYO3A, Homo sapiens, UniProt Q8NEV4); kinase binding, KINOMEscan; baseline: DMSO control: 100%

Set 2
Structure (SMILES): C[C@@H]1CN(c2ccc(-c3cc(C(=O)NCCOCCOCCOCCOCCNC(=O)/C=C/c4[nH]cc(C(=O)N[C@@H](CC(N)=O)c5ccc(F)c(Cl)c5)c4-c4ccc(Cl)cc4F)ccc3F)cc2NC(=O)c2c[nH]c(=O)cc2C(F)(F)F)C[C@H](C)N1C
Read-out: thermal unfolding
Method: differential scanning fluorimetry
Concentration: 5.5 µM
Reading: higher = more unfolded
Measurement: SYPRO Orange fluorescence
WDR5: WD repeat-containing protein 5 (WDR5, Homo sapiens, UniProt P61964)
DCAF1: DDB1- and CUL4-associated factor 1 (DCAF1, Homo sapiens, UniProt Q9Y4B6)
UniProt Q9Y4B6, sequence (whole entry, looked up): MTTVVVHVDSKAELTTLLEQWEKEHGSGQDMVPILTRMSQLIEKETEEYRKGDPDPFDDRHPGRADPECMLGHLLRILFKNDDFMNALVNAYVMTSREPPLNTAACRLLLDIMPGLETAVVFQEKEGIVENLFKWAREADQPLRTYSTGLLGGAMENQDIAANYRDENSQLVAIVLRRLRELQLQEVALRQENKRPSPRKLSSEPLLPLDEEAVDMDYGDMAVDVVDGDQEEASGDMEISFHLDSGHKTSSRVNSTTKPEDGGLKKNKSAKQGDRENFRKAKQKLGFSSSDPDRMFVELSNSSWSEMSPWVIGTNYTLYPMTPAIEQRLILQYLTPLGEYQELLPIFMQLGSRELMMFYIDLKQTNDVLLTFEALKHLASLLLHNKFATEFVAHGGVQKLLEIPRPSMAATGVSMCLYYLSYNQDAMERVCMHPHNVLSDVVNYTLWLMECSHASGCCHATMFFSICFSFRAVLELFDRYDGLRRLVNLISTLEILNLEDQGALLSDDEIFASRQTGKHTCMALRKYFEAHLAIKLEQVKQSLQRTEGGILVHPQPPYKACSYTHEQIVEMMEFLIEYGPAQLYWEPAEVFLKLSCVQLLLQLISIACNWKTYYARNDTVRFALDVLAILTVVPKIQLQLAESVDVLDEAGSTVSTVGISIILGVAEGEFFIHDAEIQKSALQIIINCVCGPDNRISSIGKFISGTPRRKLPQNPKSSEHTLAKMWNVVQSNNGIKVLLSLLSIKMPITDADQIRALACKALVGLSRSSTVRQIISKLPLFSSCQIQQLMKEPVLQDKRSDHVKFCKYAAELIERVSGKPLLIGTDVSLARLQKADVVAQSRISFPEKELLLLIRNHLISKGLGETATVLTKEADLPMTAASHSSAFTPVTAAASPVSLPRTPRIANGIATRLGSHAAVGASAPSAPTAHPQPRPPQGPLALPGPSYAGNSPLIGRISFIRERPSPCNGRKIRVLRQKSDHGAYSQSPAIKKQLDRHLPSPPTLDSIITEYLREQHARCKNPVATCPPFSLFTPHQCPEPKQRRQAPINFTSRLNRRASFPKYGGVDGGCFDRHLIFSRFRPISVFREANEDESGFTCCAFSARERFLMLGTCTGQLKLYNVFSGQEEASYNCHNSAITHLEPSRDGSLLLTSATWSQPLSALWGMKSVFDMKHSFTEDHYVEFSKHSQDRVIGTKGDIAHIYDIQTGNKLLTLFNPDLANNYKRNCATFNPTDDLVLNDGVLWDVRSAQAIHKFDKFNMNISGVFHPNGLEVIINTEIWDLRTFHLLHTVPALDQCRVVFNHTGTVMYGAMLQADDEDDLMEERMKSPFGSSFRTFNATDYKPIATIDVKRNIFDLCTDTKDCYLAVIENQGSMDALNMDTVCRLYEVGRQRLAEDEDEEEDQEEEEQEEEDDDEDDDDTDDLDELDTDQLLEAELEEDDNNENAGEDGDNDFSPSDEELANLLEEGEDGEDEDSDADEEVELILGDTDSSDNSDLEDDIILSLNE
WDR5; 60.41 °C: 15500 a.u.
DCAF1; 50.4 °C: 15500 a.u.
WDR5; 91.81 °C: 48700 a.u.
DCAF1; 52.41 °C: 17300 a.u.
WDR5; 40.6 °C: 13900 a.u.
WDR5; 44 °C: 15100 a.u.
WDR5; 84.61 °C: 51700 a.u.
WDR5; 75.41 °C: 26800 a.u.
WDR5; 86.41 °C: 53600 a.u.
WDR5; 46 °C: 15500 a.u.
DCAF1; 57.01 °C: 27200 a.u.

Set 3
Compound: CN(C1COC1)C(C)(C)/C=C(\C#N)C(=O)N1CCC[C@H]1Cn1nc(-c2ccc(Oc3ccccc3)cc2F)c2c(N)ncnc21
Read-out: kinase activity
Measurement: inhibition
SGK1 (Homo sapiens, UniProt O00141); 1 µM: 4%
FGFR4 (Homo sapiens, UniProt P22455); 0.1 µM: 9%
SYK (Homo sapiens, UniProt P43405); 1 µM: 0%
PLK1 (Homo sapiens, UniProt P53350); 1 µM: -16%
CAMK1 (Homo sapiens, UniProt Q14012); 1 µM: 2%
MAP4K5 (Homo sapiens, UniProt Q9Y4K4); 0.1 µM: 1%
FLT4 (Homo sapiens, UniProt P35916); 1 µM: 9%
CSK (Homo sapiens, UniProt P41240); 1 µM: 33%
GSK3B (Homo sapiens, UniProt P49841); 1 µM: 3%
FLT1 (Homo sapiens, UniProt P17948); 0.1 µM: 1%
SRPK1 (Homo sapiens, UniProt Q96SB4); 0.1 µM: 0%

Set 4
SMILES: Cc1ccc(O)c(C)c1-c1cnc2[nH]c(-c3cnc(N4CCC(CN5CCC(c6ccc(NC7CCC(=O)NC7=O)cc6F)CC5)CC4)nc3)cc2c1C#N (centres unmarked)
Target: Membrane-associated tyrosine- and threonine-specific cdc2-inhibitory kinase (PKMYT1, Homo sapiens, UniProt Q99640)
Measurement: inhibition
Target sequence (Q99640 1-499): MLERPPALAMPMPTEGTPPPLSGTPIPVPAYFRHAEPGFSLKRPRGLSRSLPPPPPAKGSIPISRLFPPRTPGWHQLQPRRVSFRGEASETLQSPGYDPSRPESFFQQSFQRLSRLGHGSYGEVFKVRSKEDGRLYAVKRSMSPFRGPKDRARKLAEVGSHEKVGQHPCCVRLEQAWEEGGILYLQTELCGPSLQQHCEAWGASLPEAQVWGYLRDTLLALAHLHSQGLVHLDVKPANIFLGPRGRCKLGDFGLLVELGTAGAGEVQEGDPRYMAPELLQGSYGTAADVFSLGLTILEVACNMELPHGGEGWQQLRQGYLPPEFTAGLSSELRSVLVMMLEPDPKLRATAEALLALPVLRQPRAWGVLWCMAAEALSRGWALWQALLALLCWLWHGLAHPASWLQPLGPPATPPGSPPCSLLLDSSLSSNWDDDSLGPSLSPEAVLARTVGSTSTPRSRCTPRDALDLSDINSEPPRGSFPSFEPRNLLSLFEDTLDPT
cell-free assay, inhibitor, TR-FRET; 1 µM: 98.2%
0.3333 µM: 98.8%
0.00046 µM: -2.87%
5.1e-05 µM: -3.84%
0.1111 µM: 96.8%
cell-free assay, inhibitor, TR-FRET; 0.1111 µM: 96.3%
cell-free assay, inhibitor, TR-FRET; 460 pM: 0.23%
0.01235 µM: 74.2%
cell-free assay, inhibitor, TR-FRET; 12.35 nM: 71.7%
cell-free assay, inhibitor, TR-FRET; 152 pM: -3.62%

Excerpt of the above (set 1):
MAP2K1 (Homo sapiens, UniProt Q02750); binding, competition with immobilised ligand: 69%
SIK1 (Homo sapiens, UniProt P57059); KINOMEscan: 92%
HIPK4 (Homo sapiens, UniProt Q8NE63); binding, competition with immobilised ligand: 100%
Myosin-IIIa (MYO3A, Homo sapiens, UniProt Q8NEV4); kinase binding, KINOMEscan; baseline: DMSO control: 100%
MAP3K10 (Homo sapiens, UniProt Q02779); binding, competition with immobilised ligand: 100%
